Assay results pooled from the literature.
Each line is one published result; not all experiments were run side by side. Values joined by “and” are separate records of one study, mostly repeats; a detail may differ. ± marks the error that the study gave.

C[C@H](NC(=O)[C@H](CCCNC(=N)N)NC(=O)[C@H](CCCNC(=N)N)NC(=O)CNC(=O)[C@H](Cc1ccc(O)cc1)NC(=O)CCCN)C(=O)N[C@@H](CCCNC(=N)N)C(=O)N[C@@H](CCCNC(=N)N)C(=O)N[C@@H](CCCNC(=N)N)C(=O)N[C@@H](CCCNC(=N)N)C(=O)N[C@@H](CCCNC(=N)N)C(=O)N[C@@H](CCCNC(=N)N)C(=O)O  GABA concentration (LC-MS; Kunming mouse, male, brain; intravenous, 10 mg/kg, 1 h, added: GABA 50 mg/kg): 446 ± 44 µg/g
CCCC[C@H](NC(=O)[C@H](Cc1cccs1)NC(=O)[C@H](Cc1c[nH]cn1)NC(=O)CCNC(=O)[C@@H](NC(=O)[C@H](C)NC(=O)[C@H](Cc1c[nH]c2ccccc12)NC(=O)[C@H](CCC(N)=O)NC(=O)[C@H](Cc1cccs1)NC(=O)CN1CCC(NC(=O)CN(CCN(CCN(CC(=O)O)CC(=O)O)CC(=O)O)CC(=O)O)CC1)C(C)C)C(N)=O [indium-111 labelled]  intact peptide (radio-HPLC; Swiss nu/nu mice, blood; intravenous, 1 nmol, 5 min): 9.5% and 10.2%
N=C(N)NCCC[C@@H]1NC(=O)[C@H](CCCCNC(=O)CNC(=O)CNC(=O)CNC(=O)CC[C@H](NC(=O)c2ccc(NN=Cc3ccccc3S(=O)(=O)O)nc2)C(=O)NCC(=O)NCC(=O)NCC(=O)NCCCC[C@@H]2NC(=O)[C@@H](Cc3ccccc3)NC(=O)[C@H](CC(=O)O)NC(=O)CNC(=O)[C@H](CCCNC(=N)N)NC2=O)NC(=O)[C@@H](Cc2ccccc2)NC(=O)[C@H](CC(=O)O)NC(=O)CNC1=O [technetium-99m labelled]  tumour uptake (female athymic nu/nu mice, U-87 MG glioma, tumour; intravenous, dose not given, 120 min, tumour weight above 0.4 g): < 8 %ID/g
N=C(N)NCCC[C@@H]1NC(=O)[C@H](CCCCNC(=O)CNC(=O)CNC(=O)CNC(=O)CC[C@H](NC(=O)CCOCCOCCOCCOCCNC(=O)CC[C@H](NC(=O)CN2CCN(CC(=O)O)CCN(CC(=O)O)CCN(CC(=O)O)CC2)C(=O)NCCOCCOCCOCCOCCC(=O)N[C@@H](CCC(=O)NCC(=O)NCC(=O)NCC(=O)NCCCC[C@@H]2NC(=O)[C@@H](Cc3ccccc3)NC(=O)[C@H](CC(=O)O)NC(=O)CNC(=O)[C@H](CCCNC(=N)N)NC2=O)C(=O)NCC(=O)NCC(=O)NCC(=O)NCCCC[C@@H]2NC(=O)[C@@H](Cc3ccccc3)NC(=O)[C@H](CC(=O)O)NC(=O)CNC(=O)[C@H](CCCNC(=N)N)NC2=O)C(=O)NCC(=O)NCC(=O)NCC(=O)NCCCC[C@@H]2NC(=O)[C@@H](Cc3ccccc3)NC(=O)[C@H](CC(=O)O)NC(=O)CNC(=O)[C@H](CCCNC(=N)N)NC2=O)NC(=O)[C@@H](Cc2ccccc2)NC(=O)[C@H](CC(=O)O)NC(=O)CNC1=O [indium-111 labelled]  tissue uptake (female athymic nude mice, intestine; intravenous, 3 µCi, 24 h, U-87 MG glioma xenograft): 3.78 ± 1.23 %ID/g
CC(C)C[C@@H]1NC(=O)[C@H](C(C)C)NC(=O)[C@H](CO)NC(=O)CNC(=O)CNC(=O)[C@H](CCCNC(=N)N)NC(=O)[C@@H]2CCCN2C(=O)[C@@H](NC(=O)CC[C@H](NC(=O)c2ccc(N(C)Cc3cnc4nc(N)nc(N)c4n3)cc2)C(=O)O)C(C)(C)SSC[C@@H](C(=O)O)NC(=O)CNC(=O)[C@H]([C@@H](C)O)NC(=O)[C@H](C(C)C)NC1=O  degradation rate constant (HPLC; NaOH buffer; pH 12.0, 70 °C): 0.074 h⁻¹
N=C(N)NCCC[C@@H]1NC(=O)[C@H](CCCCNC(=O)CC[C@H](NC(=S)Nc2ccc(C[C@H]3CN(CC(=O)O)CCN(CC(=O)O)CCN3CC(=O)O)cc2)C(=O)NCCCC[C@@H]2NC(=O)[C@@H](Cc3ccccc3)NC(=O)[C@H](CC(=O)O)NC(=O)CNC(=O)[C@H](CCCNC(=N)N)NC2=O)NC(=O)[C@@H](Cc2ccccc2)NC(=O)[C@H](CC(=O)O)NC(=O)CNC1=O  stability (HPLC and LC-MS; acetate buffer; pH 4, heating, radiolabeling conditions): unstable
N=C(N)NCCC[C@@H]1NC(=O)[C@H](CCCCNC(=O)CCOCCOCCOCCOCCNC(=O)CC[C@H](NC(=O)CCOCCOCCOCCOCCNC(=O)CC[C@H](NC(=O)CN2CCN(CC(=O)O)CCN(CC(=O)O)CCN(CC(=O)O)CC2)C(=O)NCCOCCOCCOCCOCCC(=O)N[C@@H](CCC(=O)NCCOCCOCCOCCOCCC(=O)NCCCC[C@@H]2NC(=O)[C@@H](Cc3ccccc3)NC(=O)[C@H](CC(=O)O)NC(=O)CNC(=O)[C@H](CCCNC(=N)N)NC2=O)C(=O)NCCOCCOCCOCCOCCC(=O)NCCCC[C@@H]2NC(=O)[C@@H](Cc3ccccc3)NC(=O)[C@H](CC(=O)O)NC(=O)CNC(=O)[C@H](CCCNC(=N)N)NC2=O)C(=O)NCCOCCOCCOCCOCCC(=O)NCCCC[C@@H]2NC(=O)[C@@H](Cc3ccccc3)NC(=O)[C@H](CC(=O)O)NC(=O)CNC(=O)[C@H](CCCNC(=N)N)NC2=O)NC(=O)[C@@H](Cc2ccccc2)NC(=O)[C@H](CC(=O)O)NC(=O)CNC1=O [indium-111 labelled]  tissue uptake (female athymic nude mice, kidney; intravenous, 3 µCi, 72 h, U-87 MG glioma xenograft): 3.1 ± 0.38 %ID/g
CC(=O)O[C@H]1C(=O)[C@@]2(C)[C@H]([C@H](OC(=O)c3ccccc3)[C@]3(O)C[C@H](OC(=O)[C@H](OC(=O)Cc4ccccc4SSCCC(=O)NCCOCCOCCNC(=O)CCC(=O)NCC(=O)NCC(=O)N[C@@H](CCCCN)C(=O)N[C@H](C(=O)N[C@@H](CCCCN)C(=O)N[C@H](C(=O)N[C@@H](CCCCN)C(=O)N[C@H](C(=O)N[C@@H](CCCCN)C(=O)N[C@H](C(=O)N4CCC[C@@H]4C(=O)N4CCC[C@H]4C(=O)N[C@H](C(=O)N[C@@H](CCCCN)C(=O)N[C@H](C(=O)N[C@@H](CCCCN)C(=O)N[C@H](C(=O)N[C@@H](CCCCN)C(=O)N[C@H](C(=O)N[C@@H](CCCCN)C(N)=O)C(C)C)C(C)C)C(C)C)[C@@H](C)O)C(C)C)C(C)C)C(C)C)C(C)C)[C@@H](NC(=O)c4ccccc4)c4ccccc4)C(C)=C1C3(C)C)[C@]1(OC(C)=O)CO[C@@H]1C[C@@H]2O  paclitaxel release (HEPES buffer; 5 min, pH 7.4, 37 °C, added: glutathione 5 mM): 73%
CC(C)C[C@H](NC(=O)[C@@H]1CCCN1C(=O)[C@H](CCCCN)NC(=O)[C@@H](N)CO)C(=O)N1CCC[C@H]1C(=O)N[C@@H](CCC(=O)O)C(=O)N[C@H](C(=O)N[C@H](C(=O)N[C@@H](CC(=O)O)C(=O)N[C@@H](CCC(=O)O)C(=O)N[C@@H](Cc1ccc(O)cc1)C(=O)N[C@@H](Cc1cn(CCOCCOCCOCCNC(=O)CCc2ccc(O)c(CN(CCN(CC(=O)O)Cc3cc(CCC(=O)NCCCC[C@H](NC(=O)N[C@@H](CCC(=O)O)C(=O)O)C(=O)O)ccc3O)CC(=O)O)c2)nn1)C(=O)O)[C@@H](C)O)C(C)C [gallium-68 labelled]  standardized uptake value (NMRI nu/nu mice, LNCaP tumour, skin; 135.34 nmol/kg, low molar activity): 0.09 g/g
N=C(N)NCCC[C@@H]1NC(=O)[C@H](CCCCNC(=O)CCOCCOCCOCCOCCNC(=O)CN2CCN(CC(=O)O)CCN(CC(=O)O)CCN(CC(=O)O)CC2)NC(=O)[C@@H](Cc2ccccc2)NC(=O)[C@H](CC(=O)O)NC(=O)CNC1=O [indium-111 labelled]  tissue uptake (female athymic nude mice, brain; intravenous, 3 µCi, 0.5 h, U-87 MG glioma xenograft): 0.27 ± 0.02 %ID/g
CC[C@H]1c2cc3[nH]c4c(c3C)C(=O)[C@H](C(=O)OC)c4c3nc(cc4[nH]c(cc(n2)[C@@H]1C)c(C(C)=O)c4C)[C@@H](C)[C@@H]3CCC(=O)NCC(=O)N[C@H](CC(=O)O)C(=O)N[C@H](CCC(=O)O)C(=O)N[C@@H](C(=O)N[C@H](CC(=O)O)C(=O)NCC(=O)N[C@H](CO)C(=O)NCC(=O)N[C@H](CCCCN)C(N)=O)C(C)C  time to strong tumour fluorescence (nude mouse HT-1080 xenograft; intravenous, 25 nmol, low folate receptor): 5 h
N=C(N)NCCC[C@@H]1NC(=O)[C@H](CCCCNC(=O)CC[C@H](NC(=O)CCOCCOCCOCCOCCNC(=O)CN2CCN(CC(=O)O)CCN(CC(=O)O)CCN(CC(=O)O)CC2)C(=O)NCCCC[C@@H]2NC(=O)[C@@H](Cc3ccccc3)NC(=O)[C@H](CC(=O)O)NC(=O)CNC(=O)[C@H](CCCNC(=N)N)NC2=O)NC(=O)[C@@H](Cc2ccccc2)NC(=O)[C@H](CC(=O)O)NC(=O)CNC1=O [indium-111 labelled]  tissue uptake (female athymic nude mice, blood; intravenous, 3 µCi, 24 h, U-87 MG glioma xenograft): 0.07 ± 0.02 %ID/g
CSCC[C@H](NC(=O)[C@H](CC(C)C)NC(=O)[C@H](Cc1c[nH]cn1)NC(=O)CNC(=O)[C@@H](NC(=O)[C@H](C)NC(=O)[C@H](Cc1c[nH]c2ccccc12)NC(=O)[C@H](CCC(N)=O)NC(=O)CCCCCNC(=O)CNC(=O)CNC(=O)CNC(=O)CSC(C)=O)C(C)C)C(N)=O [technetium-99m labelled]  tissue uptake (healthy Swiss mouse, large intestine, contents removed; intravenous, 18.5 MBq, 5 min): 4.17 ± 0.77 %ID/g
CCCC[C@H](NC(=O)CNC(=O)CNC(=O)c1ccc(NN)nc1)C(=O)N[C@H]1CC(=O)NCCCC[C@@H](C(N)=O)NC(=O)[C@H](Cc2c[nH]c3ccccc23)NC(=O)[C@H](CCCNC(=N)N)NC(=O)[C@@H](Cc2ccccc2)NC(=O)[C@H](Cc2c[nH]cn2)NC1=O [technetium-99m labelled]  uptake (C57 mouse, B16/F1 melanoma, bone; 2 h, added: L-lysine 12 mg): 0.13 ± 0.08 %ID/g
N=C(N)NCCC[C@@H]1NC(=O)[C@H](CCCCNC(=O)CC[C@H](NC(=O)CCOCCOCCOCCOCCNC(=O)CC[C@H](NC(=O)CN2CCN(CC(=O)O)CCN(CC(=O)O)CCN(CC(=O)O)CC2)C(=O)NCCOCCOCCOCCOCCC(=O)N[C@@H](CCC(=O)NCCCC[C@@H]2NC(=O)[C@@H](Cc3ccccc3)NC(=O)[C@H](CC(=O)O)NC(=O)CNC(=O)[C@H](CCCNC(=N)N)NC2=O)C(=O)NCCCC[C@@H]2NC(=O)[C@@H](Cc3ccccc3)NC(=O)[C@H](CC(=O)O)NC(=O)CNC(=O)[C@H](CCCNC(=N)N)NC2=O)C(=O)NCCCC[C@@H]2NC(=O)[C@@H](Cc3ccccc3)NC(=O)[C@H](CC(=O)O)NC(=O)CNC(=O)[C@H](CCCNC(=N)N)NC2=O)NC(=O)[C@@H](Cc2ccccc2)NC(=O)[C@H](CC(=O)O)NC(=O)CNC1=O [indium-111 labelled]  tissue uptake (female athymic nude mice, lungs; intravenous, 3 µCi, 24 h, U-87 MG glioma xenograft): 0.96 ± 0.33 %ID/g
CCCC[C@H](NC(=O)CCCCCCCNC(=O)c1ccc(NN)nc1)C(=O)N[C@H]1CC(=O)NCCCC[C@@H](C(N)=O)NC(=O)[C@H](Cc2c[nH]c3ccccc23)NC(=O)[C@H](CCCNC(=N)N)NC(=O)[C@@H](Cc2ccccc2)NC(=O)[C@H](Cc2c[nH]cn2)NC1=O [technetium-99m labelled]  uptake (C57 mouse, B16/F1 melanoma, spleen; intravenous, 0.5 h): 0.94 ± 0.72 %ID/g

For quick reference, copied from above:
N=C(N)NCCC[C@@H]1NC(=O)[C@H](CCCCNC(=O)CCOCCOCCOCCOCCNC(=O)CC[C@H](NC(=O)CCOCCOCCOCCOCCNC(=O)CC[C@H](NC(=O)CN2CCN(CC(=O)O)CCN(CC(=O)O)CCN(CC(=O)O)CC2)C(=O)NCCOCCOCCOCCOCCC(=O)N[C@@H](CCC(=O)NCCOCCOCCOCCOCCC(=O)NCCCC[C@@H]2NC(=O)[C@@H](Cc3ccccc3)NC(=O)[C@H](CC(=O)O)NC(=O)CNC(=O)[C@H](CCCNC(=N)N)NC2=O)C(=O)NCCOCCOCCOCCOCCC(=O)NCCCC[C@@H]2NC(=O)[C@@H](Cc3ccccc3)NC(=O)[C@H](CC(=O)O)NC(=O)CNC(=O)[C@H](CCCNC(=N)N)NC2=O)C(=O)NCCOCCOCCOCCOCCC(=O)NCCCC[C@@H]2NC(=O)[C@@H](Cc3ccccc3)NC(=O)[C@H](CC(=O)O)NC(=O)CNC(=O)[C@H](CCCNC(=N)N)NC2=O)NC(=O)[C@@H](Cc2ccccc2)NC(=O)[C@H](CC(=O)O)NC(=O)CNC1=O [indium-111 labelled]  tissue uptake (female athymic nude mice, kidney; intravenous, 3 µCi, 72 h, U-87 MG glioma xenograft): 3.1 ± 0.38 %ID/g
CC(C)C[C@H](NC(=O)[C@@H]1CCCN1C(=O)[C@H](CCCCN)NC(=O)[C@@H](N)CO)C(=O)N1CCC[C@H]1C(=O)N[C@@H](CCC(=O)O)C(=O)N[C@H](C(=O)N[C@H](C(=O)N[C@@H](CC(=O)O)C(=O)N[C@@H](CCC(=O)O)C(=O)N[C@@H](Cc1ccc(O)cc1)C(=O)N[C@@H](Cc1cn(CCOCCOCCOCCNC(=O)CCc2ccc(O)c(CN(CCN(CC(=O)O)Cc3cc(CCC(=O)NCCCC[C@H](NC(=O)N[C@@H](CCC(=O)O)C(=O)O)C(=O)O)ccc3O)CC(=O)O)c2)nn1)C(=O)O)[C@@H](C)O)C(C)C [gallium-68 labelled]  standardized uptake value (NMRI nu/nu mice, LNCaP tumour, skin; 135.34 nmol/kg, low molar activity): 0.09 g/g
